Results pooled from the literature.
± marks the error that the study gave.

Cn1cc(-c2ccc(-c3cncc(Cl)c3N3CCC4(CCNC4=O)CC3)cc2)cn1  log2 fold change (COLO 205; gene expression, microarray, item: PLK4 mRNA; concentration not given, 2 h; reference: untreated cells): -1.74
COc1cc2nccc(Oc3ccc(NC(=O)c4cc5c(n(-c6ccccc6)c4=O)CCCC5=O)nc3)c2cc1OC  hazard ratio (Mantel-Haenszel; MOLM-13 luc/gfp xenograft, mice; diet, 0.004% in feed; reference: control over treated): 20.1
N#CCC1CCN(c2nc(Nc3ccc(N4CCC(O)CC4)cc3)c3c(=O)[nH]ncc3n2)CC1  GIF level change (Olink multiplex; human, serum; 40 mg, day 29, unit not given; reference: baseline): 1.32
CCc1cc(C(=O)NC)c2nccc(N3CCc4c(cc(Cn5ccnc5)cc4-c4cn(C)nc4C(F)(F)F)C3=O)c2c1  serum CREA level (Sprague Dawley rats; oral, 100 mg/kg once daily, 7 days): 47.7 ± 2.86 µmol/L
N#Cc1ccc2c(c1)[C@H]1CCCN(C(=O)c3ccc4[nH]cnc4c3)[C@H]1C2  fasting plasma glucose (T2DM patients with overweight or obesity, plasma; oral, 10 mg, day 15 (360 h), multiple dosing, mean): 128 mg/dL
Cc1cc(Nc2cc3ncccc3c(N[C@@H]3C[C@H]4CC[C@@H](C3)N4CCC#N)n2)n[nH]1  change physician global assessment (moderate-severe ulcerative colitis patients; 80 mg, day 28, Mayo subscore, unit not given; reference: baseline): -0.2
N#Cc1ccn2c(-c3ccncc3)c(-c3ccc(F)cc3)nc2c1  log2 fold change (kinase binding, competitor, MIB/MS competition, item: RCK2; Candida albicans cell lysate; 10 µM; reference: DMSO): -0.119
CC(C)NCC(O)c1ccc(O)c(O)c1 (centres unmarked)  sarcomere length (ventricular cardiomyocytes, C57BL/6 mouse; dose not given, 0.8 s): 1.64 µm
C[C@H](Oc1ccc(Br)cc1-c1ccon1)C(=O)O  difference from placebo (MVRC latency; human, tibialis anterior muscle; 400 mg, SAD): -0.209 ms
NC(=O)c1cnc2[nH]ccc2c1N[C@@H]1[C@@H]2CC3C[C@H]1C[C@@](O)(C3)C2  percent change (CD8+ central memory T cells, flow cytometry; Japanese humans, peripheral blood; 200 mg single dose; reference: baseline): 0.13%
O=C(O)c1cc(O)ccc1O  log2 fold change (binding, MIDAS equilibrium dialysis LC-MS; A2AR-BRIL thermostabilized; concentration not given; reference: no-protein control): -0.0954
Cc1c(-c2ccc(N3CCc4cccc(C(=O)Nc5nc6ccccc6s5)c4C3)nc2C(=O)O)cnn1CC12CC3(C)CC(C)(C1)CC(OCCNCC[C@H](O)CO)(C3)C2  dP/dt at 50 change (beagle dog, male, anaesthetised; intravenous infusion, 0.3 mg/kg/min, 120 min; reference: vehicle): -35%
O=P(O)(O)C(Cl)(Cl)P(=O)(O)O  GFAP-positive area difference (immunostaining; mouse, sham-operated, meninges; dose not given; reference: day 1 over day 7): 0.14%
CC(=O)N[C@H]1[C@H](O[C@H]2[C@H](O)[C@@H](NC(C)=O)C(O)O[C@@H]2CO)O[C@H](CO)[C@@H](O)[C@@H]1O (some centres unmarked)  log2 fold change (binding, MIDAS equilibrium dialysis LC-MS; A2AR-BRIL thermostabilized; concentration not given; reference: no-protein control): -0.107
O=C(O)CC[C@H](NC(=O)N[C@@H](CCCCNC(=O)[C@H](Cc1ccc2ccccc2c1)NC(=O)CCCCCNC(=O)CN1CCN(CC(=O)O)CCN(CC(=O)O)CCN(CC(=O)O)CC1)C(=O)O)C(=O)O [gallium-68 labelled]  tissue uptake (gamma counting; mouse, PC-3 xenograft, kidney; intravenous, 3.7 MBq, 2 h): 32.4 ± 2.36 %ID/g
CCO[C@H]1CCN(Cc2c(OC)cc(C)c3[nH]ccc23)[C@H](c2ccc(C(=O)O)cc2)C1  C3d-positive type III RBCs (PNH patients, blood; oral, 25 mg then 100 mg, week 4, mean percent change; reference: baseline): -52.5%
NCCCC[C@H](N)C(=O)O  log2 fold change (binding, MIDAS equilibrium dialysis LC-MS; A2AR-BRIL thermostabilized; concentration not given; reference: no-protein control): -0.0167
C=CCn1c(=O)c2cnc(Nc3ccc(N4CCN(C)CC4)cc3)nc2n1-c1ccc2c(n1)[C@@](O)(CC)CC2  tumour growth inhibition (HCC1428 xenograft, BALB/c nude mice; oral, 80 mg/kg once daily x 14, day 27; reference: vehicle): 96.2%
CC(CN)C(=O)O (centres unmarked)  log2 fold change (binding, MIDAS equilibrium dialysis LC-MS; A2AR-BRIL thermostabilized; concentration not given; reference: no-protein control): -0.0641
CC(C)C[C@H](NC(=O)C[C@H](O)[C@H](CC(C)C)NC(=O)[C@H](Cc1c[nH]cn1)NC(=O)CNC(=O)[C@@H](NC(=O)[C@H](C)NC(=O)[C@H](Cc1c[nH]c2ccccc12)NC(=O)[C@H](CCC(N)=O)NC(=O)[C@@H](Cc1ccccc1)NC(=O)COCCOCCNC(=O)CN1CCN(CC(=O)O)CCN(CC(=O)O)CCN(CC(=O)O)CC1)C(C)C)C(N)=O [lutetium-177 labelled]  tissue uptake (female BALB/c nu/nu mice, blood; intravenous, 50 pmol, 24 h): 0.0088 ± 0.0004 %ID/g
Cc1coc([C@H]2C[C@H]3[C@@H](CF)SC(N)=N[C@@]3(c3ccc(F)cc3F)CO2)n1  Aβ40 level (item: Aβx-40; Mus musculus wild-type, cerebrospinal fluid; subcutaneous, 80 mg/kg, 5 h): 0.61 ng/mL
CCn1cc(-c2cc(Cn3ccoc3=N)cc3c2CCN([C@@H](C)c2cc(OC)ccn2)C3=O)c(C(F)(F)F)n1  EC50 (SW480; cell growth, inhibitor; 120 h): > 30 µM
CC[C@H](C)C(=O)N1CCC(NC(=O)Nc2ccc(OC(F)(F)F)c(F)c2)CC1  percent recovery (Caco-2; Caco-2 permeability; 10 µM, 60 min, pH 7.4 apical, 7.4 basolateral, replicate 2, added: verapamil; basolateral to apical): 82%
OC(CCN1CCCCC1)(c1ccccc1)C1CC2C=CC1C2 (centres unmarked)  change in EEG Alpha1-power Pz-O1 (resting-state EEG; healthy elderly humans; oral, 4 mg, eyes closed, LS mean; reference: baseline): -40%
CC(C)C[C@H](NC(=O)C[C@H](O)[C@H](CC(C)C)NC(=O)[C@H](Cc1c[nH]cn1)NC(=O)CNC(=O)[C@@H](NC(=O)[C@H](C)NC(=O)[C@H](Cc1c[nH]c2ccccc12)NC(=O)[C@H](CCC(N)=O)NC(=O)[C@@H](Cc1ccccc1)NC(=O)COCCOCCNC(=O)CCC(C(=O)O)N1CCN(CC(=O)O)CCN(CC(=O)O)CCN(CC(=O)O)CC1)C(C)C)C(N)=O (some centres unmarked) [lutetium-177 labelled]  tissue uptake (BALB/c nu/nu mice, liver; intravenous, 500 pmol, 1 h, added: PA 300 µg): 0.34 ± 0.06 %ID/g
NCc1[nH]cc(CCC(=O)O)c1CC(=O)O  log2 fold change (binding, MIDAS equilibrium dialysis LC-MS; A2AR-BRIL thermostabilized; concentration not given; reference: no-protein control): -0.03
CCn1cc(-c2cc(Cn3ccnc3)cc3c2CCN([C@H](c2cc(OC)ccn2)C2CC2)C3=O)c(C(F)(F)F)n1  EC50 (SU-DHL-6; cell growth, inhibitor; 120 h): 1.45 µM
CSc1cc(Oc2ccnc3[nH]c(=O)cnc23)ccc1NC(=O)Nc1cc(C(C)(C)C)nn1-c1ccccc1  phospho ratio (patient-derived cell line clone A; RPPA, item: phosphorylated Tuberin; human; 1 µM, 4 h; reference: DMSO): 1.23
CC(=O)NCCc1c[nH]c2ccc(O)cc12  log2 fold change (binding, MIDAS equilibrium dialysis LC-MS; A2AR-BRIL thermostabilized; concentration not given; reference: no-protein control): 0.161
O=C(O)CNC(=O)Cc1ccccc1  sarcomere length (ventricular cardiomyocytes, C57BL/6 mouse; dose not given, 0.648 s): 1.72 µm
N[C@@H](CCC(=O)O)C(=O)O  log2 fold change (binding, MIDAS equilibrium dialysis LC-MS; A2AR-BRIL thermostabilized; concentration not given; reference: no-protein control): -0.103
Cc1cc([C@H]2C[C@H]3[C@@H](CF)SC(N)=N[C@@]3(c3ccc(F)cc3F)CO2)on1  brain Aβ40 level (item: Aβx-40; wild-type mouse, brain; subcutaneous, 100 mg/kg, 1 h): 1.97 ng/g
